Published values of several laboratories.
Compare with care: the assays were run in different laboratories. Values joined by “and” are separate records of one study, mostly repeats; a detail may differ. ± marks the error that the study gave.
GAP50: Glideosome-associated protein 50 (GAP50, Plasmodium falciparum, UniProt Q8I2X3)
TRPM8: Transient receptor potential cation channel subfamily M member 8 (TRPM8, Homo sapiens, UniProt Q7Z2W7)
FFAR4: Free fatty acid receptor 4 (FFAR4, Homo sapiens, UniProt Q5NUL3)
NADH dehydrogenase [ubiquinone] iron-sulfur protein 7, mitochondrial/NADH dehydrogenase [ubiquinone] iron-sulfur protein 2, mitochondrial/MT-ND1: NADH dehydrogenase [ubiquinone] iron-sulfur protein 7, mitochondrial/NADH dehydrogenase [ubiquinone] iron-sulfur protein 2, mitochondrial/MT-ND1 (Homo sapiens, UniProt O75251+O75306+P03886)
Nuclear receptor subfamily 4 group A member 2 LBD: Nuclear receptor subfamily 4 group A member 2, LBD (Homo sapiens, UniProt P43354)

COc1c(Nc2cc(C(F)(F)F)cc(C(F)(F)F)c2)c(=O)c1=O
Hill slope (CD209 antigen (CD209, Homo sapiens, UniProt Q9NNX6); binding, grating-coupled interferometry; Man(α1,2)Man-PEG3 chip; 2 h, no Tris): 1.9

NCCCC(=O)O
normalised MST signal (SLC6A6 (Homo sapiens, UniProt P31641, G62A); binding, microscale thermophoresis; 31.3 µM, room temperature, together with: 50 nM labelled protein; higher = more binding): 0.0108

c1coc(-c2n[nH]cc2-c2ccnc3ccccc23)c1
log2 fold change (YCK2 (Candida albicans, UniProt A0A1D8PKB4); kinase binding, MIB/MS competition; Candida albicans lysate; 10 µM; relative to: DMSO, negative = stronger binding): -0.79

CCOc1ccc(-c2nc(CNCCc3ccc(F)cc3)cs2)cc1
kon (GAP50; binding, surface plasmon resonance; 1:1 binding model): 6940 M⁻¹ s⁻¹

Nc1ncnc2c1ncn2[C@H]1C[C@@H]2OP(=O)(O)OC[C@H]2O1
relative binding affinity (anti-cAMP antibody; antibody binding, competitive cAMP EIA; concentration not given, acetylated samples; relative to: EC50 cAMP over EC50 cpd, higher = stronger binding): 0.0342

O=c1c(-c2ccc(F)cc2)c(-c2ccncc2)[nH]n1-c1ccc(Cl)cc1
remaining activity (TRPM8; antagonist; HEK293; 5 µM; relative to: control): 103 ± 9.98%

COc1cccc(-n2nc3c4cc(Cl)ccc4[nH]cc-3c2=O)c1
GABA current (Gamma-aminobutyric acid receptor subunit alpha-4/beta-3, with delta subunit (Rattus norvegicus, UniProt P28471+P63079); modulator, two-electrode voltage clamp; α4β3δ receptor; 30 µM, together with: GABA EC3-10; relative to: GABA alone): 130 ± 4%

O=c1nc(SCc2cc(F)cc(C(F)(F)F)c2)nc(SCc2ccc3sccc3c2)[nH]1
ATP hydrolysis rate (TOP2A (Homo sapiens, UniProt P11388); ATPase activity; 7.8 µM, together with: ATP 2 mM): 1.52 µM/min and 2.02 µM/min

CC(=O)c1ccc(N2CCOCC2)cc1O
remaining activity (TRPM8; antagonist; HEK293; 5 µM; relative to: control): 91.7 ± 10%

COc1cc(/C=C2\SC(=O)NC2=O)cc(F)c1OCCNc1nc2c(cnn2C2CCCC2)c(=O)[nH]1
selectivity ratio (PDE8A (Homo sapiens, UniProt O60658); relative to: PDE8A over PDE9): 28 fold

NCc1ccc(C(F)(F)F)cc1
kcat (MAOA (Homo sapiens, UniProt P21397); substrate; pH 9.0, α,α-protio substrate): 4.72 ± 0.095 s⁻¹

O=c1cc(NCCc2ccccc2F)[nH]c(=O)[nH]1
agonist effect (FFAR4; agonist, β-arrestin recruitment; CHO cells; 10 µM; relative to: 30 µM TUG-891): 1 ± 1%

Nc1nc2c(ncn2[C@@H]2O[C@H](COP(=O)(O)O)[C@@H](O)[C@H]2O)c(=O)[nH]1
ΔH of binding (GUK1 (Homo sapiens, UniProt Q16774); ITC; concentration not given): -8.58 ± 0.34 kcal/mol

NC(=O)NOCCCCCCCCCCCCCCCC[P+](c1ccccc1)(c1ccccc1)c1ccccc1.O=C([O-])C(F)(F)F
oxygen consumption rate (NADH dehydrogenase [ubiquinone] iron-sulfur protein 7, mitochondrial/NADH dehydrogenase [ubiquinone] iron-sulfur protein 2, mitochondrial/MT-ND1; complex I-dependent respiration, Seahorse XF96; HCT-116; 0.5 µM, 24 h; relative to: control): 64.3 ± 7.02%

Nc1nc2cc(F)c(F)cc2[nH]1
Hill coefficient (HVCN1 (Homo sapiens, UniProt Q96D96); proton current, inhibitor, inside-out patch clamp; Xenopus oocytes; dimeric channel): 1.13 ± 0.09

COCCOCc1ccc(-c2cc3onc(-c4ccccc4)c3c(=O)n2C)cc1
activation (Nuclear receptor subfamily 4 group A member 2 LBD; reporter gene, Gal4 hybrid reporter; 3 µM; relative to: vehicle): 1.48 fold

O=C(O)C1=CC(=C(c2ccc(O)c(C(=O)O)c2)c2ccc(O)c(C(=O)O)c2)C=CC1=O
remaining current (P2X purinoceptor 3 (P2RX3, Homo sapiens, UniProt P56373); patch clamp; HEK293; 400 nM, unit not given; relative to: baseline): 0.528 ± 0.057

CNc1nnc(Sc2cnn(-c3ccccc3)c(=O)c2Cl)s1
koff (GAP50; binding, surface plasmon resonance; 1:1 binding model): 0.165 s⁻¹

N=C1NC(=O)C2(CCc3ccc(Br)cc32)C(=O)N1 (stereo not drawn)
Emax (GABA-A receptor; alpha-1/beta-3/gamma-2 (Homo sapiens, UniProt P14867+P18507+P28472); 300 µM): 3%

C[S+](CC[C@H](N)C(=O)[O-])C[C@H]1O[C@@H](n2cnc3c(N)ncnc32)[C@H](O)[C@@H]1O (stereo partly drawn)
apparent Vmax (KMT2C (Homo sapiens, UniProt Q8NEZ4); substrate, enzyme-coupled methylation; together with: H3 peptide 1600 µM): 5 ± 0.4 µM/min

CN(C)C(=O)C(CCN1CCC(O)(c2ccc(Cl)cc2)CC1)(c1ccccc1)c1ccccc1
normalized Gmax (Calcium-activated potassium channel subunit alpha-1, with LRRC26 γ1 subunit (KCNMA1, Homo sapiens, UniProt Q12791); BK current, inhibitor, inside-out patch clamp; excised membrane patch; 0.1 µM, γ1 subunit coexpressed, together with: nominally 0 Ca2+ cytosolic; relative to: without loperamide): 0.899

CCN1CCC[C@H]1CNC(=O)c1c(O)c(Cl)cc(Cl)c1OC
log2 fold change (GPR132 (Homo sapiens, UniProt Q9UNW8); β-arrestin recruitment, TANGO luminescence; concentration not given; relative to: basal luminescence): -0.188

CCCCCCCC(=O)c1c(O)cc(O)cc1CC(=O)OCC
activation (Nuclear receptor subfamily 4 group A member 2 LBD; reporter gene, Gal4 hybrid reporter; 10 µM; relative to: vehicle): 1.11 fold

Cc1ccc(C(=O)NCc2ccc(CNS(=O)(=O)c3ccccc3)cc2)cc1
EC (CXCR4 (Homo sapiens, UniProt P61073); binding, inhibitor, competitive binding; MDA-MB-231; together with: biotinylated TN14003): 100 nM

NC(=O)NOCCCCCCCCCCCCCCCCCCCC[P+](c1ccccc1)(c1ccccc1)c1ccccc1.O=C([O-])C(F)(F)F
oxygen consumption rate (NADH dehydrogenase [ubiquinone] iron-sulfur protein 7, mitochondrial/NADH dehydrogenase [ubiquinone] iron-sulfur protein 2, mitochondrial/MT-ND1; complex I-dependent respiration, Seahorse XF96; HCT-116; 0.1 µM, 24 h; relative to: control): 101 ± 8.97%

COc1cc(NC(=O)c2cccs2)c2ncccc2c1
Hill slope (3-oxoacyl-[acyl-carrier-protein] reductase FabG (fabG, Pseudomonas aeruginosa, UniProt O54438); enzyme activity, inhibitor, NADPH fluorescence; reverse reaction, together with: 3-OH-decanoyl-NAC, NADP): 2

COc1ccc(CCNc2cc(=O)[nH]c(=O)[nH]2)cc1
agonist effect (FFAR4; agonist, β-arrestin recruitment; CHO cells; 10 µM; relative to: 30 µM TUG-891): 0%

CC(=O)Nc1ccc(O)cc1
chemical shift change (BRD4 (Homo sapiens, UniProt O60885); 19F NMR, refers to: tyrosine 97; 375 µM; relative to: free protein): -0.148 ppm

CCNC(=O)/C=C/c1cccc(Br)c1
remaining transport activity (SLC6A19 (Homo sapiens, UniProt Q695T7); inhibitor, FLIPR membrane potential; CHO-BC cells; 0.01 µM, unit not given; relative to: no inhibitor): 0.905

O=c1cc(NCCCc2ccccc2)[nH]c(=O)[nH]1
agonist effect (FFAR4; agonist, β-arrestin recruitment; CHO cells; 10 µM; relative to: 30 µM TUG-891): 1%

CC(C)[C@H](NC(=O)c1cc(-c2cnn3cc(-c4ccc(OCCN5CCCCC5)cc4)cnc23)cs1)C(F)(F)F
relative inhibition (WNK2 (Homo sapiens, UniProt Q9Y3S1); radiometric kinase; 15 nM; relative to: WNK2 over ULK1): 0.0227

CCCCCCNc1cc(=O)[nH]c(=O)[nH]1
inhibition (FFAR4; antagonist, β-arrestin recruitment; CHO cells; 10 µM): 11 ± 2%

COC(=O)c1ccc(NC(=O)COc2cc(Cl)ccc2Cl)s1
activity (Kir3.1/Kir3.2 (Homo sapiens, UniProt P48051+P48549); activator, thallium flux; HEK293; concentration not given): inactive

For quick reference, copied from above:
N=C1NC(=O)C2(CCc3ccc(Br)cc32)C(=O)N1 (stereo not drawn)
Emax (GABA-A receptor; alpha-1/beta-3/gamma-2 (Homo sapiens, UniProt P14867+P18507+P28472); 300 µM): 3%

C[S+](CC[C@H](N)C(=O)[O-])C[C@H]1O[C@@H](n2cnc3c(N)ncnc32)[C@H](O)[C@@H]1O (stereo partly drawn)
apparent Vmax (KMT2C (Homo sapiens, UniProt Q8NEZ4); substrate, enzyme-coupled methylation; together with: H3 peptide 1600 µM): 5 ± 0.4 µM/min
